Results collected from several papers.
Lines come from different studies, so protocols differ. Numbers after ± are the reported error.

Molecule | organism | test | system | conditions | IC50
O=C1CSC(=S)N1/N=C/c1cn(Cc2cccc(Cl)c2)c2ccc([N+](=O)[O-])cc12 | Leishmania major | parasite growth, resazurin | THP-1 | 72 h, intracellular, amastigote | > 10 µM
CS(=O)(=O)c1ccc(-c2cnc(N)c(-c3ccc(C(F)(F)F)nc3)c2)cc1 | Plasmodium cynomolgi | hypnozoite (small EEF) growth | primary rhesus hepatocytes | day 3, compound added at 72 h | 5.1 µM
C#CCn1cc(/C=C2\SC(=S)NC2=O)c2cc([N+](=O)[O-])ccc21 | Leishmania major | parasite growth, resazurin | THP-1 | 24 h, intracellular, amastigote | > 10 µM
Nc1ccccc1NC(=O)c1ccc(CNC(=O)OCc2cccnc2)cc1 | Lucilia cuprina | larval weight gain | LS strain, larvae on impregnated cotton wool | 24 h | 680 µg
O=C1CSC(=S)N1/N=C/c1c[nH]c2ccc([N+](=O)[O-])cc12 | Trypanosoma congolense | – | trypomastigotes, IL3000 | – | > 61 µM
O=C(Nc1ccccc1F)c1ccccc1Sc1ccc([N+](=O)[O-])cc1 | Human immunodeficiency virus 1 | viral replication | MT4 | 7 days | > 100 µM
COc1nc2c([N+](=O)[O-])cccc2cc1-c1ccc(C(=O)O)cc1 | Trypanosoma brucei | parasite growth, resazurin | – | 74 h, trypomastigote | 2.2 µM
O=C1CSC(=S)N1/N=C/c1cn(Cc2ccccc2)c2ccc([N+](=O)[O-])cc12 | Leishmania major | parasite growth, resazurin | THP-1 | 72 h, intracellular, amastigote | 2.44 µM
C[C@@H]1[C@H](O)[C@@H](C)/C=C/C=C/C=C/C=C/C=C/C=C/C=C/[C@H](O[C@@H]2O[C@H](C)[C@@H](O)[C@H](N)[C@@H]2O)C[C@@H]2O[C@](O)(C[C@@H](O)C[C@@H](O)[C@H](O)CC[C@@H](O)C[C@@H](O)CC(=O)O[C@H]1C)C[C@H](O)[C@H]2C(=O)O | Leishmania amazonensis | parasite growth, imaging | mouse Peritoneal macrophage | 48 h, intracellular, amastigote | 0.036 µM
CCCCN(Cc1ccc(C(=O)NO)cc1)C(=O)Nc1ccccc1 | Lucilia cuprina | larval weight gain | LS strain, larvae on impregnated cotton wool | 24 h | 137 µg
O=[N+]([O-])c1ccc(/C=N/N=C/c2ccccc2)o1 | Leishmania major | parasite growth | – | intracellular, amastigote | > 7 µM
5′-deoxy-5′-Pro-DADMe-ImmA | Campylobacter jejuni | growth, optical density | Mueller-Hinton broth | 16.4 h | 3.1 ± 0.2 µM
O=C1NC(=S)S/C1=C\c1cn(Cc2ccc(F)cc2)c2ccc([N+](=O)[O-])cc12 | Leishmania major | parasite growth, resazurin | THP-1 | 24 h, intracellular, amastigote | > 10 µM
O=C(Cc1ccccc1F)Nc1ccccc1Sc1ccc([N+](=O)[O-])cc1 | Human immunodeficiency virus 1 | viral replication | MT4 | 7 days | > 100 µM
O=Cc1cccc(-c2cc3cccc([N+](=O)[O-])c3[nH]c2=O)c1 | Trypanosoma brucei | parasite growth, resazurin | – | 74 h, trypomastigote | 5.6 µM
COc1ccccc1C(=O)Nc1ccccc1Oc1ccc(OC(C)=O)cc1 | Human immunodeficiency virus 1 | viral replication | MT4 | 7 days | > 100 µM
O=C1CSC(=S)N1/N=C/c1cn(Cc2ccc(F)cc2)c2ccc([N+](=O)[O-])cc12 | Trypanosoma congolense | – | trypomastigotes, IL3000 | – | > 58 µM
COc1ccccc1S(=O)(=O)Nc1ccccc1Sc1ccc([N+](=O)[O-])cc1 | Human immunodeficiency virus 1 | viral replication | MT4 | 7 days | 39 µM
CCCC(=O)OCOC(=O)C(C)(C)C | Lucilia cuprina | larval weight gain | LS strain, larvae on impregnated cotton wool | 24 h | > 1000 µg

Repeated from above:
Molecule | organism | test | system | conditions | IC50
Nc1ccccc1NC(=O)c1ccc(CNC(=O)OCc2cccnc2)cc1 | Lucilia cuprina | larval weight gain | LS strain, larvae on impregnated cotton wool | 24 h | 680 µg
O=C1CSC(=S)N1/N=C/c1c[nH]c2ccc([N+](=O)[O-])cc12 | Trypanosoma congolense | – | trypomastigotes, IL3000 | – | > 61 µM
O=C(Nc1ccccc1F)c1ccccc1Sc1ccc([N+](=O)[O-])cc1 | Human immunodeficiency virus 1 | viral replication | MT4 | 7 days | > 100 µM
